Assay results of several laboratories.
Protocols differ between the studies behind these lines. “And” joins repeats or separate records; there may be more than shown. Numbers after ± are the reported error.

SMILES | cell line | assay | system | setting | scale | quantity | result
Cn1cncc1C1=CN(c2ncnc3[nH]cnc23)CCS1 | UACC-62 |  |  | melanoma cell line |  | CC50 | 138000 nM
CN1CCN(S(=O)(=O)c2cc([N+](=O)[O-])ccc2N(CCOS(C)(=O)=O)CCOS(C)(=O)=O)CC1 | sample H BCP-ALL PDX cells | cell viability | ex vivo |  |  | IC50 | 859 nM
COc1cc(CCC[P+](c2ccccc2)(c2ccccc2)c2ccccc2)c(OC)c2c1OCO2.[I-] | MDA-MB-435 | SRB |  |  |  | LC50 | -4.48 log M
CC(c1ccccc1)(c1ccc(O)cc1)c1ccc(O)cc1 | HepG2 spheroids | Hoechst flow cytometry |  | 0.01 µM, 96 h |  | G1 phase cells | 76.2 ± 7.74%
COc1cc(N2CC[C@@]3(O)C(=O)c4cc(C)c(C)cc4N=C23)ccn1 | COS-7 | cytokinesis |  | 24 h |  | EC50 | 1000 nM
CCN(CC)c1ccc(C=NNC(=O)CSc2nc3ccccc3c(=O)n2Cc2ccc(S(N)(=O)=O)cc2)c(O)c1 | CCRF-CEM | NCI five-dose screen |  |  |  | CC50 | > 100000 nM
Oc1ccc(C2(c3ccc(O)cc3)c3ccccc3-c3ccccc32)cc1 | HepG2 spheroids | planimetry |  | 160 µM, 96 h | reference: solvent control | spheroid surface area | 1.61 fold
Nc1ncc(-c2nc(N3CCOCC3)nc(N3CCOCC3)n2)c(C(F)F)n1 | COLO-829 |  |  | 72 h |  | GI50 | 1150 nM
Cn1cc(-c2ccc(-c3cncc(Cl)c3N3CCC4(CCNC4=O)CC3)cc2)cn1 | COLO 205 | microarray, measured: BIRC5 |  | concentration not given, 6 h, gene set Survivin | reference: untreated cells | fold change in expression | -3.3
C/C=C(/C)C(=O)O[C@H]1C(C)=C2[C@H]([C@@H]1OC(=O)CCCCCCC)[C@@](C)(OC(C)=O)C[C@H](OC(=O)CCC)[C@@]1(O)[C@H]2OC(=O)[C@@]1(C)O | HEK293 | western blot, measured: phospho-eIF2α over total eIF2α |  | 3 µM, 6 h, unit not given | reference: mock | protein level | 1.59 and 1.39 and 1.44
Cc1ccc2c(c1)C(=O)[C@]1(O)CCN(c3ccc4nc(C)ccc4c3)C1=N2 | COS-7 | cytokinesis |  | 48 h |  | EC50 | 1700 ± 100 nM
Oc1ccc(C(c2ccc(O)cc2)(C(F)(F)F)C(F)(F)F)cc1 | HepG2 spheroids | Hoechst flow cytometry |  | 1 µM, 24 h |  | G2 phase cells | 17.9 ± 3.53%
C[C@H]1[C@H](C)CC[C@]2(C(=O)O)CC[C@]3(C)C(=CC[C@@H]4[C@@]5(C)CC[C@H](O)C(C)(C)[C@@H]5CC[C@]43C)[C@H]12 | 3T3 | cell growth, MTT |  | 1.8 µg/mL, 48 h |  | cell survival | 87.4 ± 1%
Cc1cc(C(C)(C)c2ccc(O)c(C)c2)ccc1O | HepG2 spheroids | Hoechst flow cytometry |  | 1 µM, 24 h |  | G2 phase cells | 15.9 ± 4.31%
COc1ccc2c(c1)[nH]c1c(C)nccc12 | DU-145 | bisulfite pyrosequencing, measured: RASSF1A promoter CpG site 18 |  | 10 µM, 16 h |  | DNA methylation | 90%
C[C@@H](O)[C@H]1C(=O)N2C(C(=O)O)=C(S[C@@H]3CN[C@H](C(=O)N(C)C)C3)[C@H](C)[C@H]12 | Escherichia coli DH5α expressing KPC-25 | bacterial growth |  |  |  | MIC | ≤ 0.06 µg/mL
COc1c(C)c2c(c(O)c1C/C=C(\C)CCC(=O)O)C(=O)OC2 | SK-HEP1 | cell proliferation | liver cancer |  |  | IC50 | 302 nM
Oc1cc(O)cc(-c2cc3ccc(O)cc3o2)c1 | 3T3 | cell growth, MTT |  | 25 µg/mL, 48 h |  | cell survival | 51.44 ± 0.44%
COc1ccc([C@H]2c3[nH]c4ccc(Cl)cc4c3CCN2C(=O)Oc2ccc(Cl)cc2)cc1 | CD19+ B cells with PBMC | cytokine secretion, measured: s-IL-6 |  | 0.01 µM, 72 h, BioMAP BT system |  | inhibition | 53%

SMILES | cell line | assay | system | setting | scale | quantity | result
Oc1cc(Cl)ccc1Oc1ccc(Cl)cc1Cl | HepG2 | extracellular flux, measured: reserve respiratory capacity |  | 24 h, distribution mode 1 |  | point of departure | 0.0661 µM
CCCCCCCCCCCCCCCCCCN1C(=CC=CC2=[N+](CCCCCCCCCCCCCCCCCC)c3ccccc3C2(C)C)C(C)(C)c2ccccc21.[O-][Cl+3]([O-])([O-])[O-] | mouse erythrocytes |  |  | 1 h, 37 °C, 25 µM lipids |  | labelling efficiency | < 5%
Nc1ncnc2c1ncn2[C@@H]1O[C@@H]2COP(=O)(O)O[C@H]3[C@@H](O)[C@H](n4cnc5c(=O)[nH]cnc54)O[C@@H]3COP(=O)(O)O[C@H]2[C@H]1O | HFF-1 | RNA sequencing, measured: Reactome antigen cross-presentation |  | upregulated pathways | reference: mock | fold enrichment | 5.17
Cc1nn(-c2nc3c(F)cc(F)cc3s2)c(O)c1C(c1ccc(C(F)(F)F)cc1)c1c(C)nn(-c2nc3c(F)cc(F)cc3s2)c1O | RAW-ISG | CCK-8 |  | 1.563 µM |  | viability | 109% and 113% and 99.5% and 97.3%
Cc1cccc(-c2cccc(C)n2)n1.Cc1cccc(-c2cccc(C)n2)n1.F[P-](F)(F)(F)(F)F.F[P-](F)(F)(F)(F)F.[Ru+2].c1ccc2cc(-c3nc4c5cccnc5c5ncccc5c4[nH]3)ccc2c1 | SK-MEL-28 | cell viability |  | 1% O2, added: blue light 453 nm, 100 J/cm2 |  | EC50 | 59400 ± 1400 nM
CC(C)=CCc1c(O)cc(O)cc1-c1cc2ccc(O)c(CC=C(C)C)c2o1 | MCF7 | cell growth, MTT |  | 25 µg/mL, 48 h |  | cell survival | 69.58 ± 0.62%
CN1CCN(C2(CNC3CCN(c4cccc(-c5cc6cc(F)ccc6[nH]5)c4)CC3)CCC2)CC1 | SK-MEL-28 |  |  |  |  | CC50 | 6280 nM
C=C1[C@@H](O)[C@@H]2O[C@]3(CC[C@H](/C=C/[C@@H](C)[C@@H]4CC(C)=C[C@@]5(O[C@H](C[C@@](C)(O)C(=O)O)CC[C@H]5O)O4)O3)CC[C@H]2O[C@@H]1[C@@H](O)C[C@H](C)[C@H]1O[C@@]2(CCCCO2)CC[C@H]1C | RPE-1 hTERT TP53-/- Cas9 cells |  |  | 12 days, knockout screen |  | LD20 | 2 nM
Cc1cc(NS(=O)(=O)c2ccc(NC(=O)/C(C#N)=C/c3ccc(N4CCCCC4)cc3)cc2)no1 | HCT-116 | ELISA, measured: Bcl2 |  | IC50, 48 h, unit not given | reference: untreated | protein level | 0.21
C/C=C(/C)C(=O)O[C@H]1C(C)=C2[C@H]([C@@H]1OC(=O)CCCCCCC)[C@@](C)(OC(C)=O)C[C@H](OC(=O)CCC)[C@@]1(O)[C@H]2OC(=O)[C@@]1(C)O | HEK293T | RNA-seq, measured: SERPINH1 mRNA |  | 10 µM, 6 h | reference: vehicle | log2 fold change | 0.185
C=C(C)[C@@H]1CCC(C)=C[C@H]1c1c(O)cc(CCCCC)cc1O | human sperm | BCECF |  | 10 µM |  | intracellular pH | no effect
COc1cnc(OC)n2nc(NS(=O)(=O)c3c(OCC(F)F)cccc3C(F)(F)F)nc12 | HEK293T | cytotoxicity, CCK-8 |  | 3.13 µM, 72 h |  | inhibition | 0%
C[C@]12CC[C@H](O)C[C@H]1CC[C@@H]1[C@@H]2CC[C@]2(C)[C@@H](c3ccc(=O)oc3)CC[C@]12O | MCF7 | RT-qPCR, measured: CCND1 |  | 20 nM, 48 h, unit not given, added: estradiol | reference: untreated | mRNA level | 1.53 and 1.88 and 1.5
COc1ccc(CC(=O)NC(NC(=NC#N)Nc2cccc3ncccc23)C(C)(C)C)cc1OC (stereo not shown) | N2a | fluorescence signal increase, inhibitor |  | 30 µM, added: ATP or BzATP 300 µM |  | effect on signal | inhibited
COc1c(CCC[P+](c2ccccc2)(c2ccccc2)c2ccccc2)cc2c(c1OC)OCO2.[I-] | UACC-62 | SRB |  |  |  | TGI | -5.26 log M
CC(C)N1CCC(NC2CCN(c3cccc(-c4cc5cc(F)ccc5[nH]4)c3)CC2)CC1 | BT-549 |  |  |  |  | GI50 | 1770 nM
O=C1CCP(=S)(c2ccccc2)CC1 | HaCaT | ELISA |  | IC50, 72 h |  | IL-6 level | 6.3 ± 0.42 pg/mL
Cn1cc2cc(C(F)(F)c3nnc4ccc(-c5cnn(C6CC6)c5)nn34)c(F)cc2n1 | MKN-45 | annexin V-FITC/PI flow cytometry |  | 200 nM, 48 h |  | apoptotic cells | ~59.8%

A few entries again:
SMILES | cell line | assay | system | setting | scale | quantity | result
Cc1cccc(-c2cccc(C)n2)n1.Cc1cccc(-c2cccc(C)n2)n1.F[P-](F)(F)(F)(F)F.F[P-](F)(F)(F)(F)F.[Ru+2].c1ccc2cc(-c3nc4c5cccnc5c5ncccc5c4[nH]3)ccc2c1 | SK-MEL-28 | cell viability |  | 1% O2, added: blue light 453 nm, 100 J/cm2 |  | EC50 | 59400 ± 1400 nM
CC(C)=CCc1c(O)cc(O)cc1-c1cc2ccc(O)c(CC=C(C)C)c2o1 | MCF7 | cell growth, MTT |  | 25 µg/mL, 48 h |  | cell survival | 69.58 ± 0.62%
CN1CCN(C2(CNC3CCN(c4cccc(-c5cc6cc(F)ccc6[nH]5)c4)CC3)CCC2)CC1 | SK-MEL-28 |  |  |  |  | CC50 | 6280 nM
